Published values pooled from the literature.
Lines come from different studies, so protocols differ. Several values in a cell are separate wells, animals, samples, runs or records. Numbers after ± are the reported error.

Under “log2 fold change”, `Nc1ncnc2c1ncn2[C@H]1C[C@H](O)[C@@H](COP(=O)(O)OP(=O)(O)O)O1` is recorded as -0.267 (binding, MIDAS equilibrium dialysis LC-MS; A2AR-BRIL thermostabilized; concentration not given; baseline: no-protein control).
`N#Cc1ccc2c(c1)[C@H]1CCCN(C(=O)c3ccc4[nH]cnc4c3)[C@H]1C2`: “fasting plasma insulin” 20.2 mU/L (T2DM patients with overweight or obesity, plasma; oral, 10 mg, day 15 (360 h), multiple dosing, mean).
For `Nc1nc2c(ncn2[C@@H]2O[C@H](COP(=O)(O)OP(=O)(O)O)[C@@H](O)[C@H]2O)c(=O)[nH]1`, “log2 fold change” read -0.922 (binding, MIDAS equilibrium dialysis LC-MS; A2AR-BRIL thermostabilized; concentration not given; baseline: no-protein control).
The sarcomere length of `O=C(O)CNC(=O)Cc1ccccc1` is reported as 1.64 µm (ventricular cardiomyocytes, C57BL/6 mouse; dose not given, 0.5 s).
`CN(C(=O)n1cnc(-c2ccc[n+]([O-])c2)c1)C1CCCCC1` has an AUC(0-t) of 527 ng·h/mL (item: OEA; human, plasma; 1.25 mg single dose).
Under “power, theta EEG, Fz-Cz”, `OC(CCN1CCCCC1)(c1ccccc1)C1CC2C=CC1C2` (stereo not shown) is recorded as 2.5 µV² (resting-state EEG; healthy elderly humans; oral, 2 mg, eyes open, LS mean).
With `Oc1ccc(Br)cc1C=NCCN1CCOCC1` the inhibition was 15% (hydroxyl radical scavenging; 80 µM).
`Cn1cc([C@H]2C[C@H]3CSC(N)=N[C@@]3(c3ccc(F)cc3F)CO2)cn1` gave an Aβ40 level of 1 ng/mL (item: Aβx-40; Mus musculus wild-type, cerebrospinal fluid; subcutaneous, 10 mg/kg, 6 h).
`C[C@H]1C[C@H]2CSC(N)=N[C@@]2(c2nc(NC(=O)c3ccc(OC(F)F)cn3)cs2)CO1` — result for “percent change from baseline”: -90.2% (item: Aβ1-40; healthy adults, plasma; 200 mg single dose, 48 h post-dose; baseline: placebo).
For `CC1(C)OCCn2c1nc1c(N3CCOCC3)nc(-c3cnc(N)nc3)nc12`, “GSEA enrichment score” read 0.205 (RNA sequencing, item: HALLMARK_INTERFERON_ALPHA_RESPONSE; MB002 tumour; concentration not given; baseline: vehicle, direction not given).
For `Nc1ccn([C@@H]2O[C@H](COP(=O)(O)OP(=O)(O)OCC(O)CO)[C@@H](O)[C@H]2O)c(=O)n1` (stereo partly shown), “log2 fold change” read -0.252 (binding, MIDAS equilibrium dialysis LC-MS; A2AR-BRIL thermostabilized; concentration not given; baseline: no-protein control).
Under “log2 fold change”, `N#Cc1ccn2c(-c3ccncc3)c(-c3ccc(F)cc3)nc2c1` is recorded as -0.078 (kinase binding, competitor, MIB/MS competition, item: ENV7; Candida albicans cell lysate; 10 µM; baseline: DMSO).
Under “genomic disease score”, `CCCCCN1C[C@H](O)[C@@H](O)[C@H](O)[C@@H]1CO` is recorded as 0.47 (RNA sequencing, item: Hallmark interferon alpha genes; Hexb-/- mouse, hippocampus; 300 mg/kg/day; direction not given).
`O=c1ccn([C@H]2C[C@H](O)[C@@H](COP(=O)(O)OP(=O)(O)OP(=O)(O)O)O2)c(=O)[nH]1` — result for “log2 fold change”: -0.924 (binding, MIDAS equilibrium dialysis LC-MS; A2AR-BRIL thermostabilized; concentration not given; baseline: no-protein control).
Under “tumour growth inhibition”, `C=CCn1c(=O)c2cnc(Nc3ccc(N4CCN(C)CC4)cc3)nc2n1-c1ccc2c(n1)[C@@](O)(CC)CC2` is recorded as 96.2% (HCC1428 xenograft, BALB/c nude mice; oral, 80 mg/kg once daily x 14, day 27; baseline: vehicle).
`COc1cc2nccc(Oc3ccc(NC(=O)c4cc5c(n(-c6ccccc6)c4=O)CCCC5=O)nc3)c2cc1OC` gave a hazard ratio of 20.1 (Mantel-Haenszel; MOLM-13 luc/gfp xenograft, mice; diet, 0.004% in feed; baseline: control over treated).
For `N#Cc1ccc2c(-c3ccncc3)c(-c3ccc(F)cc3)nn2c1`, “log2 fold change” read 0.0868 (kinase binding, competitor, MIB/MS competition, item: TPK2; Candida albicans cell lysate; 1 µM; baseline: DMSO).
Under “GIF level change”, `N#CCC1CCN(c2nc(Nc3ccc(N4CCC(O)CC4)cc3)c3c(=O)[nH]ncc3n2)CC1` is recorded as 1.08 (Olink multiplex; human, serum; 20 mg, day 15, unit not given; baseline: baseline).
`COc1ccc2c(c1)CC[C@@H]1[C@@H]2CC[C@]2(C)[C@@H](NCCCCCCN3C(=O)C=CC3=O)CC[C@@H]12` has a GFAP-positive area of 0.38% and 0.33% and 0.76% (mouse, humanized UT, subarachnoid haemorrhage, meninges; dose not given, day 1; baseline: total area).
`O=P(O)(O)OC[C@H]1O[C@H](OP(=O)(O)OP(=O)(O)O)[C@H](O)[C@@H]1O`: “log2 fold change” -0.562 (binding, MIDAS equilibrium dialysis LC-MS; A2AR-BRIL thermostabilized; concentration not given; baseline: no-protein control).
For `CC1(C)C(/C=C/C=C/C=C/C=C2\N(CCCCS(=O)(=O)O)c3ccc4ccccc4c3C2(C)C)=[N+](CCCCS(=O)(=O)[O-])c2ccc3ccccc3c21`, “recurrent tumour volume” read 66.7 mm³ (mouse MMTV-PyMT mammary tumour model; dose not given, 15 days post-surgery, after image-guided surgery).
For `COc1cc(Nc2ncc3c(n2)-c2ccc(Cl)cc2C(c2c(F)cccc2OC)=NC3)ccc1C(=O)O`, “median response score” read 2 (mouse, KT-10 Wilms tumour xenograft; 5.2 mg/kg; direction not given).
`NC(=O)c1cnc2[nH]ccc2c1N[C@@H]1[C@@H]2CC3C[C@H]1C[C@@](O)(C3)C2` — result for “change from baseline”: -3.8% (flow cytometry, item: CD8+ naive T cells; Japanese healthy subjects, peripheral blood; oral, 100 mg twice daily, day 7).
The plasma FGF21 of `OCC(O)CO` is reported as 1230 pg/mL and 549 pg/mL (female Slc25a13-/- Gpd2-/- mouse; drinking water, 5% w/v, 2 days).
For `Cc1nc(C#Cc2cccnc2)cs1`, “spontaneous population spike amplitude” read 100 ± 5.4% (field recording; rat hippocampal slice CA3; 10 µM, 10 min; baseline: baseline).
Under “share of responses”, `CC(C)[C@H](NC(=O)[C@H](Cc1ccc(O)cc1)NC(=O)[C@H](Cc1ccc(O)cc1)NC(=O)[C@@H]1CCCN1C(=O)[C@H](CCC(=O)O)NC(=O)[C@H](CCC(=O)O)NC(=O)[C@H](Cc1c[nH]c2ccccc12)NC(=O)[C@@H]1CCCN1C(=O)[C@@H](NC(=O)[C@H](CCC(N)=O)NC(=O)c1ccc2c(c1)C(=O)OC21c2ccc(O)cc2Oc2cc(O)ccc21)C(C)C)C(=O)N[C@H](C(=O)N[C@@H](CCCCN)C(=O)N[C@@H](CCCCN)C(=O)N[C@@H](CO)C(=O)N[C@@H](CO)C(=O)NCC(=O)NCC(N)=O)C(C)C` is recorded as 0% (nerve penetration depth; human head and neck surgery, nerves; 500 mg, much improved; baseline: white light).
Under “inhibition of HMGB1 AUC”, `Cc1cnc(N2CC3(CCOCC3)C2)c(C(=O)Nc2ccc(C(=O)N3CCc4cc(C(=O)Nc5c(C)cccc5F)sc4-c4ccccc43)cc2)c1` is recorded as 3% (human, RSV infection, nasal wash; dose not given, ITT-I population; baseline: placebo).
For `CN[C@@H]1COc2c(S(=O)(=O)NC(=O)Nc3c4c(cc5c3CCC5)CCC4)cnn2C1`, the inhibition was 99.2% (item: IL-18; human participants, whole blood ex vivo; 1800 mg single dose, 8 h, IL-18, circulating, adjusted for, added: LPS/ATP; baseline: baseline).
`NCC(=O)Nc1cncc(-c2nn3c(=O)cc(N4CCNCC4)nc3s2)c1`: “inhibition of platelet aggregation” 4.08% (light transmission aggregometry; human, stable CAD on aspirin, platelets ex vivo; subcutaneous, 0.075 mg/kg, 24 h post-dose, mean, added: ADP 20 µM).
With `CC(=O)Oc1cc2c(s1)CCN(C(C(=O)C1CC1)c1ccccc1F)C2` (stereo not shown) the inhibition was 23.1 ± 19.3% (platelet aggregation, light transmission aggregometry; human patients, platelet-rich plasma; dose not given, 4 to 6 h, added: TRAP 15 µM).
`CC(C)NCC(O)c1ccc(O)c(O)c1` (stereo not shown) gave a sarcomere length of 1.72 µm (ventricular cardiomyocytes, C57BL/6 mouse; dose not given, 0.008 s).
Under “change from baseline”, `N#Cc1ccc2c(c1)[C@H]1CCCN(C(=O)c3ccc4[nH]cnc4c3)[C@H]1C2` is recorded as -0.2 mmHg (item: systolic blood pressure; human; 80 mg once daily, day 28, adjusted mean; baseline: placebo).
Under “difference from placebo”, `C[C@H](Oc1ccc(Br)cc1-c1ccon1)C(=O)O` is recorded as 0.284 kg (maximum voluntary grip contraction, handgrip dynamometry; healthy human; 400 mg, SAD).
`N[C@H](CCC(=O)O)C(=O)O`: “log2 fold change” 0.0887 (binding, MIDAS equilibrium dialysis LC-MS; A2AR-BRIL thermostabilized; concentration not given; baseline: no-protein control).
`OC[C@H]1O[C@@H](c2ccc(Cl)c(Cc3ccc(O[C@H]4CCOC4)cc3)c2)[C@H](O)[C@@H](O)[C@@H]1O` gave a typical Gmax of 0.218% (fasting plasma glucose, exposure-response PK/PD model; type 2 diabetes patients; bootstrap median).
`COc1ccc(-c2cncc(N[C@@H](C)c3cccc(NC(=O)c4cncc(C)c4)c3)n2)cc1OC`: “delta delta Ct” -0.927 (item: rno-miR-204-5p; rat SU5416/hypoxia model, lung; dose not given, unit not given; baseline: SU5416/hypoxia vehicle).
With `Cc1noc(C)c1-c1cc(C(O)(c2ccccn2)c2ccccn2)c2nc(C3CC3)[nH]c2c1` the maximum induction was 79% (item: HEXIM1 expression; human, peripheral blood; 6 mg, day 8, 1604 study).
For `OC[C@H]1O[C@H](OC[C@H]2O[C@H](OC[C@H]3O[C@H](O[C@]4(CO)O[C@H](CO)[C@@H](O)[C@@H]4O)[C@H](O)[C@@H](O)[C@@H]3O)[C@H](O)[C@@H](O)[C@H]2O)[C@H](O)[C@@H](O)[C@H]1O`, “log2 fold change” read 0.255 (binding, MIDAS equilibrium dialysis LC-MS; A2AR-BRIL thermostabilized; concentration not given; baseline: no-protein control).
`Cc1cc([C@H]2C[C@H]3[C@@H](C)SC(N)=N[C@@]3(c3ccc(F)cc3F)CO2)on1`: “brain Aβ40 level” 1.1 ng/g (item: Aβx-40; wild-type mouse, brain; subcutaneous, 50 mg/kg, 3 h).
With `C[C@H]1O[C@@H](O[C@H]2CC[C@@]3(C)[C@@H](CC[C@]4(C)[C@@H]3C=C[C@]35OC[C@@]6(CCC(C)(C)C[C@H]63)[C@@H](O)C[C@]54C)[C@]2(C)CO)[C@H](O)[C@@H](O[C@@H]2O[C@H](CO)[C@@H](O)[C@H](O)[C@H]2O)[C@H]1O` the adipose area was 1.81% and 1.84% and 2.06% (H&E staining; mice, normal control diet, liver; dose not given, high dose).
Under “brain Aβ40 level”, `Cc1coc([C@H]2C[C@H]3[C@@H](CF)SC(N)=N[C@@]3(c3ccc(F)cc3F)CO2)n1` is recorded as 2 ng/g (item: Aβx-40; wild-type mouse, brain; subcutaneous, 80 mg/kg, 14 h).
With `COc1cccc2c1C(=O)c1c(O)c3c(c(O)c1C2=O)C[C@@](O)(C(=O)CO)C[C@@H]3O[C@H]1C[C@H](N)[C@H](O)[C@H](C)O1` the IC50 was 0.42 nM (organoid viability, CellTiter-Glo 3D; sample E colorectal cancer organoid, human; 6 days).
Under “MX1 mRNA level”, `CCCCOc1nc(N)c2c(n1)N(Cc1cccc(CN3CCCC3)c1)CC(=O)N2` is recorded as “increased” (qPCR; human, blood; dose not given, three dosing periods; baseline: baseline).
The ACT AUEC of `C[C@@H](NC(=O)N1C(=O)[C@H](Cc2ccnc(N)c2)[C@H]1C(=O)O)C1CCCCC1` is reported as 124 (human; iv infusion, 0.6 mg/kg/h, 24 h, unit not given; baseline: baseline).
For `c1ccc(-c2n[nH]cc2-c2ccnc3ccccc23)nc1`, “log2 fold change” read 1.27 (kinase binding, competitor, MIB/MS competition, item: RIM11; Candida albicans cell lysate; 10 µM; baseline: DMSO).
`Cn1cc(Nc2nccc(-c3ccc4c(c3)CN(C3COC3)CC[C@H]4NC(=O)c3cn(C(C)(C)C)nn3)n2)cn1`: “pathway activation z-score” 3.87 (item: CD40 signalling; mouse splenic B cells, mouse; 30 mg/kg, IgD-activated B cells in vivo; baseline: vehicle, direction not given).
`O=P(O)(O)C(Cl)(Cl)P(=O)(O)O` has a GFAP-positive area of 7.79% and 6.64% (mouse, subarachnoid haemorrhage, hippocampal fissure; dose not given, day 7, compound-treated; baseline: total area).
For `CCOCc1nc(O)c(-c2nnc(Cc3ccc(Cl)cn3)o2)c(O)c1-c1c(OC)cccc1OC`, “stroke volume increase” read 30% (renal hypertensive rat; po, 0.2 mg/kg once daily, peak exposure; baseline: vehicle).
The metabolite level of `C[C@@H](O)CCOC(=O)C[C@@H](C)O` is reported as -5.5 ± 0.9 µmol/L (item: C14:2 acylcarnitine; human, plasma; 60 min, log2-transformed values).
For `CCCCC1(CCCC)CN(c2ccccc2)c2cc(SC)c(OCC(=O)N[C@@H](C(=O)NCC(=O)O)c3ccccc3)cc2S(=O)(=O)C1`, the plasma C4 was 63.6 ng/mL (item: 7α-hydroxy-4-cholesten-3-one; human, plasma; 5 mg once daily, day 14).
Under “log2 fold change”, `COc1cccc(C(=O)O)c1N` is recorded as -0.0505 (binding, MIDAS equilibrium dialysis LC-MS; A2AR-BRIL thermostabilized; concentration not given; baseline: no-protein control).
The Aβ40 level of `Cc1cc([C@H]2C[C@H]3[C@@H](CF)SC(N)=N[C@@]3(c3ccc(F)cc3F)CO2)on1` is reported as 0.87 ng/mL (item: Aβx-40; Mus musculus wild-type, cerebrospinal fluid; subcutaneous, 30 mg/kg, 9 h).
